Results from different studies.
Parts stem from different laboratories: compare values within a part only.

Series 1
Target: RNA binding protein fox-1 homolog 2, RRM domain, GST-SBP tag (RBFOX2, Homo sapiens, UniProt O43251-10, residues 100-194)
Method: RNA Bind-n-Seq
Molecule type: RNA
Matrix: in vitro
Tested at: 365 nM
Notes: natural RNA segment, single round, ends assumed
Baseline: no-protein control
Direction: higher = stronger binding
All sequences stand within: GGGAGUUCUACAGUCCGACGAUC … UGGAAUUCUCGGGUGCCAA
Construct (chain): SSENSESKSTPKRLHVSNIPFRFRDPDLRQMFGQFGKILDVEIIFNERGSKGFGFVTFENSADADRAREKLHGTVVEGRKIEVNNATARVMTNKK
Oligonucleotide | RBNS enrichment (R)
UGAAGAGACUUGUUUCCUUCUACUUUUAUGUGUCUCAGAAUAUUUUUGAGGCGAAGGCGUCUGUCUCUUGGCUAUUUUAACCUAAAAUAACAGUCUAGUUAUAUUCCCUC | 0.232
UCACCCUGUGGUGCAACACUUGAAAGACCCGGCUAGAGGCACUAUGGACUUCAGGAUCCACUAGACAGUUUUCAGUUUGCUUGGAGGUAGCUGGGUAAUCAAAAAUGUUU | 0.859
AAUGCUCCUGGCAUUUCUGGAGCAGGAGGUUGUCAGGACAACACAUAUAACCACCAAGGAUGUGUUGGCCUUUGGAGUUCCCCUUUAGGUUCCUAGUGAUGUGGAGGUUU | 0.498
AAAUGGAGUCAGGCGAAGUCCACCUUGUACGCUGCUGUGCGGCUUAGGAAUAAAGUGAAUCUCUUCCAAACUGCCUUUGUGUGAUGGCUCUGUUCCUCCCUUUUUUGGCA | 0.418
UGAAGGAGACGCGGGAGCCCACGGAGAACGCUCCAGGAGGGCCUGUCCAUCCUCGCUGUCCUUUCCCUGUUCUCCCCCUGCCCCCCGUCUCUAUCCUCUGUGGCCUUCAG | 0.284
UCUCCAGUGAAUCUCAUUCCAGGUCCUGCUCUAAGGCUCUGGGGACUAGGCUGGGCCUGGCCCCAGAAGCCGGGCAGUUCCUGCCUCCUUCUCCACUUUUAUAAAGCCAA | 0.552
ACUUAAAAGAUUUCAAAAACGAUUUAGCCUUAUAAUGUAUUUAUUUAUUUAAUUCAUUAAUGAAAGAGAGUGCUCUCUUUAAUGCAGCUUUGGGUAGACAGUCUAAUUCA | 0.504
ACAUGAAGUGCAAUAAGCUUAUAAAGCUAAGUAGUUAUUAAUAUUUCUAUUAACAUGAUACAAAGGAUGAUGAUUGUAAGUGUUUACUGACUGGCAGCUUUUAUUUCAGU | 0.5
UCUGAAAUGGUUAUUUGCAGCCCAAUUCCUCAGUGUCAAUGAUCCUUUCUGAGGCUUGGCUUUAGAAAUAACCUUUUGGAACAAACUAUAAAUAUUUCCUAGCAAGGAUC | 0.46
GGAGCCCUUACCCUCCCACCACUCCCCUCCCAAGACCCAGCCGCCGCCGUUGAGGGCUGAGUCCUUGCUGUGGGAUGUGCCAGUGUCCCCACCAACACCAGGAAUUUAGA | 0.755
GCAGCAGUGUUGUUUUGUUUGAAGUGCACACUCUAUGGUACGAGGUGUUUAGUAUACCCAAGCAGAUAGGUGUCGAUCGAACAGGAGCAGGGAGAAUACUUCCAACAGUU | 0.645
AGAGCAGCCAUAUGUGCCAUGGGUGCUUUGUGUUAGUUAUCUGCUCUAGUCUUACAGCUGAAAAUUGACCUCUGCCUUCCCCCAUCCCUUACUUUUUUUAGAUCCCUGUC | 0.596

Series 2
Target: Histone acetyltransferase KAT6A, both winged helices, GST fusion (KAT6A, Homo sapiens, UniProt Q92794, residues 1-181)
Method: protein binding microarray
Molecule type: double-stranded DNA, one strand shown
Matrix: in vitro
Tested at: not given
Notes: 8-mer, flanks averaged, mean of 2 arrays, mostly near background
Baseline: not given
Direction: higher = stronger binding
Residues (chain): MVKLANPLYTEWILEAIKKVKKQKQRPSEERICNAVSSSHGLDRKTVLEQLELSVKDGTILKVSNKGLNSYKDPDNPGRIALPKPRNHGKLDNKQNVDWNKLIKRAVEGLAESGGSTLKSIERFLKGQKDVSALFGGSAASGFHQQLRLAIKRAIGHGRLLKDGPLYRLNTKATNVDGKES
Oligonucleotide | E-score
GCCGCAAC | 0.274
ACAACGGC | 0.22
GGGAGCTA | -0.0846
CGTTAGTA | -0.0276
CAGTTTCC | 0.0116
CATGGCAC | 0.0686
GGGCGGAA | 0.0364
ATTGTAAG | -0.0692
CCTCGTAG | -0.153
CATAAGAA | -0.139
TCAGAAGA | -0.119
AAGGTGGT | -0.138
GAATATGA | -0.0787
GCGCGTCC | 0.338
ACTCCGCG | 0.233
CTCGCTTA | -0.0327
CCTGACCA | -0.188
AAACCGGT | 0.218
CTAAACAA | -0.158
AACATAAC | 0.079

Series 3
Target: Interferon regulatory factor 5, full length, phosphomimetic (IRF5, Homo sapiens, UniProt Q13568-2, residues 1-514, S451D/S453D/S456D/S462D)
Method: protein-binding microarray
Molecule type: double-stranded DNA, one strand shown
Matrix: in vitro
Tested at: 940 nM top
Notes: 60-bp whole probe
With: salmon DNA 0.4 mg/ml
Baseline: random background probes
Direction: higher = stronger binding
All sequences stand within: GCCTAGCAC … GTCTTGATTCGCTTGACGCTGCTG
Oligonucleotide | fitted relative affinity
TTACATTTATATCTTTGCTTGTGCTAG | 0.979 z-score
GGGCCACAAAGCAATAAGAAGTGCTAG | -0.315 z-score
TTAGGACTGGGGTTTCTGTTAGTGCTA | 1.66 z-score
GACGGACTGCTTTTCCTCACGTGCTAG | -0.324 z-score
GACGGTTTCGGGTTCGGGACGTGCTAG | 8.97 z-score
TTAGGACTGCTATTGCTTTAGTGCTAG | -0.695 z-score
TCATTTTTCATTTTTTTACTGTGCTAG | 1.42 z-score
GTCGATTCCAGTTTCGAGACGTGCTAG | 6.37 z-score
TTACATCTCAGACTGGATTAGTGCTAG | 0.0479 z-score
GGGTCTTCAGGTTCTCCCCCAGTGCTA | 0.144 z-score
TTAGGCTTCCTTTCCCTTTAGTGCTAG | 0.447 z-score
GGCGGTTTCCTTTTCCTGACGTGCTAG | 2.93 z-score
CAGAGCCTCAGGCCTCACACAGTGCTA | -0.706 z-score
GACGATATCGACTTTCGGGACGTGCTA | 1.05 z-score
GACGGACTGCTTTTCCTGTCGTGCTAG | 0.477 z-score
ATAGAACTGGGGACTGGATTAGTGCTA | -0.0203 z-score
TTTCTTACATGCATCATAACGTGCTAG | 1.98 z-score
TCAACTTTCTTTAACATACTGTGCTAG | 1.7 z-score
GACGGTATGGGTCTCGGGACGTGCTAG | 0.156 z-score
TACGATTTCGGGTTTCGAGACGTGCTA | 2.37 z-score
TGCTTTCTCTTTCATTGCTGCGTGCTA | 3.18 z-score
ATTCTTTGCTCATTTTTCAGGGTGCTA | 1.03 z-score
TCATGTTTTTCATTGTTACTGTGCTAG | 1.25 z-score
TGTGCCATATTTATCTGCAAGTGCTAG | -0.0633 z-score
TTAGGTATGGGGTATCGGTTAGTGCTA | 2.69 z-score

Series 4
Target: Ras GTPase-activating protein-binding protein 1, full length (G3BP1, Homo sapiens, UniProt Q13283)
Chain of UniProt Q13283 (whole entry, looked up): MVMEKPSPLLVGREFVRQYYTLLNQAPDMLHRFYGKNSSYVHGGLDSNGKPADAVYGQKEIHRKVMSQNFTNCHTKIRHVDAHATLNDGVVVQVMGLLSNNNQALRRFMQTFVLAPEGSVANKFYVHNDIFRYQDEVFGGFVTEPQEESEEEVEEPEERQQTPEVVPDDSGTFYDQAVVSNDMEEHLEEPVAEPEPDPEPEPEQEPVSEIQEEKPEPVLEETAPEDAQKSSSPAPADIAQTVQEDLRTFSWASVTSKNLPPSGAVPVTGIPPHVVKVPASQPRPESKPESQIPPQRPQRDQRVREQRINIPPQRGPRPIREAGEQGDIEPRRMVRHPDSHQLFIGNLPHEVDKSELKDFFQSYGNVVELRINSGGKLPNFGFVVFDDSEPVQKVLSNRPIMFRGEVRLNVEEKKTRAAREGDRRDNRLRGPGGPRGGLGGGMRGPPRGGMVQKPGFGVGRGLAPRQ
Method: RNA Bind-n-Seq
Molecule type: RNA
Matrix: in vitro
Tested at: 200 nM
Notes: whole 134-nt RNA, ends assumed
With: 150 mM KCl
Baseline: input library
Direction: higher = stronger binding
All sequences stand within: GGGAGUUCUACAGUCCGACGAUC … UGGAAUUCUCGGGUGUCAAGG
Oligonucleotide | log2 enrichment
GGUGGACUAUGGUGCAACAGCAGAAGAGCUGGAAGCUCACUUUCAUGGCUGUGGUUCAGUCAACCGUGUUACCAUACUGUGUGACAAAUU | -1.25
CCCUGUGGGCCUUGCUCAGAGCGGAGAAAGCAUUUGUUUGUACAAGAUCCGCAGACGUGUAAAUGUUCCUGCAAAAACACAGACUCGCGU | -1.07
GCAGGAAGUAAAAACAAAUGGAAAUGCUUCGGAUAGUGGCAGGGGUGGGGGUUGCUAAAAAAAGGGUGGGAUGGGAGUGGGUAAAGAGUU | 0.661
ACCAUGCAGGUGGGCAUCUUUGGGAAGUGGGGCAAGGGGGGGAUAGGGAGAGGGGUAACACUUUGGGAACAGGUGGUCCCAGGUCGUUUC | 1.15
CGGCCCUGGUGGCAUGCGGGGAGGAAGAGGUGGCCUCAUGGAUCGUGGUGGUCCCGGUGGAAUGUUCAGAGGUGGCCGUGGUGGAGACAG | 0.189
UCCUGUGCUACACAUCGUAUGUACCGAAUCAAAUUUAAAUUUUUUUAAACCCCCCCAAAAAAGUAUUAUGUUACGCCGUUCGGAUCUGCA | 0.211
UCCUGUGCUACACAUCGUAUGUACCGAAUCGGGGAAAGGGGAAAAAAAGGGGUUUGGGGAAAGUAUUAUGUUACGCCGUUCGGAUCUGCA | 0.721
UCCUCAAGUCCUGUGCUACACAUCGUAUGUACCGAAUCGGCGGGCGGGGCGGAAAGUAUUAUGUUACGCCGUUCGGAUCUGCACUUCCAG | 0.215
CCUCAAGUCCUGUGCUACACAUCGUAUGUACCGAAUCGGAGGAAAGGAAAGGAAAGUAUUAUGUUACGCCGUUCGGAUCUGCACUUCCAG | -0.0975
UGGGAGGUGGAUUUUGUUUAUUUUUUUAGCUCAUUUCCAGGGGUGGGAAUCUUUUUUUAAUAUGUGUCAUGAAUAAAGUUGUUUUUGAAA | 0.423
UUGAUGUUAGUAAAUUUGGUGUAAUACGUGGGGCUUCCAUAUUUCAAAGUGGAAGCUUUCUUCUCUGAAGUCGAUAUAUGGUUUUGAAUU | -0.878
GCAGGAAGUAAAAACAAAUGGAAAUGCUUCGGAUAGUGGCAGGGAUGGGGGUUGCUAAGGAAAGGGUGGGAUGGGAGUGGGUAAAGAGUU | 1.01
UCAAUGCCGGCUAUGCCCUGGCCCCAGCCACCAGUGCCAACGACAGCGAGCAGCAGAGCCUGUCCAGCGAUGCAGACACCCUGUCCCUCA | 0.255
GCAGGAAGUAAAAACAAAUGGAAAUGCUUCGGACAGUGGCAGGGGUGGGGGUUGCUAAGGAAAGGGUGGGAUGGGAGUGGGUAAAGAGUU | 1.16

For quick reference, copied from above (series 4):
Oligonucleotide | log2 enrichment
GGUGGACUAUGGUGCAACAGCAGAAGAGCUGGAAGCUCACUUUCAUGGCUGUGGUUCAGUCAACCGUGUUACCAUACUGUGUGACAAAUU | -1.25
GCAGGAAGUAAAAACAAAUGGAAAUGCUUCGGACAGUGGCAGGGGUGGGGGUUGCUAAGGAAAGGGUGGGAUGGGAGUGGGUAAAGAGUU | 1.16
UCAAUGCCGGCUAUGCCCUGGCCCCAGCCACCAGUGCCAACGACAGCGAGCAGCAGAGCCUGUCCAGCGAUGCAGACACCCUGUCCCUCA | 0.255
ACCAUGCAGGUGGGCAUCUUUGGGAAGUGGGGCAAGGGGGGGAUAGGGAGAGGGGUAACACUUUGGGAACAGGUGGUCCCAGGUCGUUUC | 1.15
